Assay results of several laboratories.
Numbered parts are unrelated; each lists some results of a single study.

Series 1
Target: Replicase polyprotein 1ab, main protease (rep, Severe acute respiratory syndrome coronavirus 2, UniProt P0DTD1)
Read-out: enzyme activity
Action: inhibitor
Concentration: 20 µM
Notes: hit confirmation, with DTT
SMILES	inhibition
[NH-]c1c[n+](N2CCOCC2)no1	-14.9%
O=C(O)c1ccc(N2C(=O)/C(=C\c3ccc(-c4ccc([N+](=O)[O-])cc4)o3)C=C2c2ccccc2)cc1	21.6%
Oc1ccc(C2CNCCc3c2cc(O)c(O)c3Cl)cc1 (centres unmarked)	-21.7%
CN1CC[C@@]2(C)c3cc(O)ccc3N(C)[C@@H]12	-0.64%

Series 2
Target: Interferon regulatory factor 3, full length, phosphomimetic (IRF3, Homo sapiens, UniProt Q14653, residues 1-427, S386D/S396D/S398D/S402D/T404D/S405D)
UniProt Q14653, sequence (whole entry, unmodified, looked up): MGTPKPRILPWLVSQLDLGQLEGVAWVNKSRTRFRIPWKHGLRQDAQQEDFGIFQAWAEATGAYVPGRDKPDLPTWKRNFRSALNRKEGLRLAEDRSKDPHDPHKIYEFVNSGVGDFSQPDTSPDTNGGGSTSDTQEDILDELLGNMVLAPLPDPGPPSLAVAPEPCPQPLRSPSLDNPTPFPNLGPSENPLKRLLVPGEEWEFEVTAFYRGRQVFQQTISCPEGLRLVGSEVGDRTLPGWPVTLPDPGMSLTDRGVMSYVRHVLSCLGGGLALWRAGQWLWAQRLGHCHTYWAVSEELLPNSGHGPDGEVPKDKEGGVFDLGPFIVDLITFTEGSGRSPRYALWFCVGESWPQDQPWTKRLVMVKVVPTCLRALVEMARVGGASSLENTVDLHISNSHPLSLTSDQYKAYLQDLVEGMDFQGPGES
Technique: protein-binding microarray
Form: double-stranded DNA, one strand shown
Medium: in vitro
Concentration: 2540 nM top
Notes: 60-bp whole probe
With: salmon DNA 0.4 mg/ml
Baseline: random background probes
Direction: higher = stronger binding
Constant ends, left off below: GCCTAGCAC … GTCTTGATTCGCTTGACGCTGCTG
Sequence	fitted relative affinity
GACGATTTCAGACCGGAGACGTGCTAG	0.695 z-score
TTGGGTTTCGGTATCGGTTAGTGCTAG	7.3 z-score
TTACATTCCAGTTTCGATTAGTGCTAG	5.02 z-score
TCAGGGCTCTTCTCTGAAACTGTGCTA	-0.191 z-score
GACGATATCCGACTGGAGACGTGCTAG	0.679 z-score
TTAGTTTTCGACTATCGGTTAGTGCTA	2.68 z-score
TTAGGATTCGGTATCGGTTAGTGCTAG	4.53 z-score
TTAGATCTAAGTATCGATTAGTGCTAG	0.549 z-score

Series 3
Target: Replicase polyprotein 1ab, nsp13 helicase (rep, Severe acute respiratory syndrome coronavirus 2, UniProt P0DTD1)
Action: inhibitor
Concentration: 20 µM
Compound	inhibition [%]
O=C(N[C@H]1CCN(C(=O)c2cc(C(F)(F)F)cc(C(F)(F)F)c2)[C@H](Cc2ccc(Cl)cc2)C1)c1ccnc2ccccc12	-1.99
NC(=O)OCC(O)COc1ccc(Cl)cc1 (centres unmarked)	5
CCCCN1CCC(CCC(=O)c2cc(Cl)c(N)cc2OC)CC1	2.82
O=c1c(-n2ccnn2)c[nH]n1-c1cc(N2CCOCC2)ncn1	-6.64
CCCc1nc2c(C)cc(-c3nc4ccccc4n3C)cc2n1Cc1ccc(-c2ccccc2C(=O)O)cc1	10.7
O=[N+]([O-])c1cccc2cn[nH]c12	4.54
O=C(Nc1cc(Oc2cc(F)c(NC(=O)C3(C(=O)Nc4ccc(F)cc4)CC3)cc2F)ccn1)C1CC1	4.68
Cc1cc(C(=O)Nc2cc(Oc3ccc4nc(NC(=O)C5CC5)cn4n3)ccc2C)n(C)n1	6.1
CCc1nn(CCCN2CCN(c3cccc(Cl)c3)CC2)c(=O)n1CCOc1ccccc1	-0.85
CNC(C)(C)Cc1ccccc1	1.5
O=C(O)CCNC(=O)c1ccccc1	3.48
Clc1ccc(C2=CCC[C@@H]3CC[C@H]2N3)cn1	11.2
CCCN1CCCC[C@H]1C(=O)Nc1c(C)cccc1C	6.16
CC(C)OC(=O)C1=CN(C(=O)c2ccc(F)c(F)c2)CC(C)(C)c2c1[nH]c1ccccc21	1.47
O=c1[nH]c(C2CCCN2)nc2c1oc1ccc(Cl)cc12 (centres unmarked)	3.49
O=P(O)(O)C(O)(Cn1ccnc1)P(=O)(O)O	5.94
Cc1cc(O)c2c(=O)c3c(O)cc(O)c4c5c(O)cc(O)c6c(=O)c7c(O)cc(C)c8c1c2c(c34)c(c78)c65	1.52
Cc1cccc(C)c1NC(=O)CN1CCCC1=O	-3.26
O=C(O)C1CSCN1 (centres unmarked)	9.17
Clc1ccccc1CN1CCc2sccc2C1	-4.47
Cc1cccc(Nc2ccncc2S(=O)(=O)NC(=O)NC(C)C)c1	7.82
NC[C@@H](CC(=O)O)c1ccccc1	1.9
C=CCNC(N)=S	3.29
OC[C@H]1O[C@@H](c2ccc(Cl)c(Cc3ccc(O[C@H]4CCOC4)cc3)c2)[C@H](O)[C@@H](O)[C@@H]1O	1.04
Cc1c(C)c2c(c(C)c1OC(=O)CCC(=O)O)CC[C@@](C)(CCC[C@H](C)CCC[C@H](C)CCCC(C)C)O2	1.93

Series 4
Target: RNA binding protein fox-1 homolog 2, RRM domain, GST-SBP tag (RBFOX2, Homo sapiens, UniProt O43251-10, residues 100-194)
Technique: RNA Bind-n-Seq
Form: RNA
Medium: in vitro
Concentration: 365 nM
Notes: natural RNA segment, single round, ends assumed
Baseline: no-protein control
Direction: higher = stronger binding
Constant ends, left off below: GGGAGUUCUACAGUCCGACGAUC … UGGAAUUCUCGGGUGCCAA
Sequence	RBNS enrichment (R)
CUAAGAGAUAAGAAGGCUGCAAGGAUUGGGGAUAAGGAGUAUAUUUUCAAGCCAAGAACCAGUAGAAAACAGAAAUAAUGGUGCUCCCAAAUAUUCAGUACCUUGGGCAA	0.542
CCUCCUAAACAAACUAACAAAACCAAUAUGGAGGUGGGGGGAGAUGAAGUCCUGUGGAACUGUCUAUGAAGACUGAAACUCACCAAUUGCUGAGUACUUUCGUUGGGGCA	0.728
AGUGCAGUGGUCUUCAUCUUCCCCAACUUGCUUCUCAGAGCUGGGAUGUAUUCCAGAGCCUGAUGUUUUUAUUCAAACCACAGAAAAGUUUUCUUUAAGUAGCCUGUGCA	1.13
GUUCAUUAUUGAUGUUUUUAUAGUGAUCCAGCCACUCUAGCUUUAAGAAUAGCUAGGUUGUAUUAAAACAUGUAAGCUACUUUAAGUGAUAAAUCAAUAGCUAAAGUUUU	0.526
UAACAUAUUUCGAAAGUAAGGUUAGCUCUAUAAAUAAUUUAGAGAGGUGAGAGUAUUUAUUUUUGGUAUGGCUGGCUCACUGCACAGACUCUGUGUUUAUGUGUGUGUGU	0.568
CUCAGCUUUUGGGCUAGCCCAGGCUUCCCUAAGAUCUGCUUUUUCUAUUUCUCCCAACCAAAUCCUCUUAAAGACCCUUUGCUAUGUAGUCUCAUGGUCUAGCAUGCAUC	3.03
AAUUCCCCAGGCUGUGAUCUACCCUAGAGAAGGCUCGCUCCCUGCCUACUGGCUCACAAAUGAGGACCAGUGAGCCAUGUCCUUGUUCCUUGUUUGAGACUGGGCUGCAG	1.38
GGUGUUUUCCUCCCUUGCCCCAUUAUCUUUUCACCUCCCAGGUCUACCAUUUCAUGGUGGUCGUUGGGUCCGCCUAAAGGAUUUGAGCGUUUGCCAUUGCAAGCAUAGUG	0.411

Series 5
Target: Histone acetyltransferase KAT6A, both winged helices, GST fusion (KAT6A, Homo sapiens, UniProt Q92794, residues 1-181)
Technique: protein binding microarray
Form: double-stranded DNA, one strand shown
Medium: in vitro
Concentration: not given
Notes: 8-mer, flanks averaged, mean of 2 arrays, mostly near background
Baseline: not given
Direction: higher = stronger binding
Construct (chain): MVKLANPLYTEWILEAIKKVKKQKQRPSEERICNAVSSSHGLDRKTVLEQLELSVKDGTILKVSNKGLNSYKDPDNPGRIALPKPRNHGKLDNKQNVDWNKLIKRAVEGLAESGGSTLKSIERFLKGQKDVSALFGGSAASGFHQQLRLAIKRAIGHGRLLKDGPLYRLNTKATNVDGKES
Sequence	E-score
CAGCGTAA	0.1
CCTGGATA	-0.0164
ACAATCGT	-0.0414
CGCAGACG	0.256
TGAACACA	-0.0277
CAACGTGC	-0.123
ATAGACTC	-0.169
TGCCACAA	-0.0618

Series 6
Cell line: HEK-293T-ACE2
Concentration: concentration not given
Baseline: vehicle
Compound	cell number [%]
CN(C)C/C=C/C(=O)Nc1cc2c(Nc3ccc(F)c(Cl)c3)ncnc2cc1O[C@H]1CCOC1.O=C(O)/C=C\C(=O)O.O=C(O)/C=C\C(=O)O	91.6
C[C@H]1O[C@]2(CS1)CN1CCC2CC1.C[C@H]1O[C@]2(CS1)CN1CCC2CC1.Cl.Cl.O	95.2
CCN[C@@H]1C[C@H](N)[C@@H](O[C@H]2OC(CN)=CC[C@H]2N)[C@H](O)[C@H]1O[C@H]1OC[C@](C)(O)[C@H](NC)[C@H]1O.CCN[C@@H]1C[C@H](N)[C@@H](O[C@H]2OC(CN)=CC[C@H]2N)[C@H](O)[C@H]1O[C@H]1OC[C@](C)(O)[C@H](NC)[C@H]1O.O=S(=O)(O)O.O=S(=O)(O)O.O=S(=O)(O)O.O=S(=O)(O)O.O=S(=O)(O)O	102

Some of these lines once more (series 2):
Sequence	fitted relative affinity
GACGATATCCGACTGGAGACGTGCTAG	0.679 z-score
GACGATTTCAGACCGGAGACGTGCTAG	0.695 z-score
TTAGATCTAAGTATCGATTAGTGCTAG	0.549 z-score
TTAGTTTTCGACTATCGGTTAGTGCTA	2.68 z-score
TTGGGTTTCGGTATCGGTTAGTGCTAG	7.3 z-score
TCAGGGCTCTTCTCTGAAACTGTGCTA	-0.191 z-score
TTACATTCCAGTTTCGATTAGTGCTAG	5.02 z-score
TTAGGATTCGGTATCGGTTAGTGCTAG	4.53 z-score
